Measurements from different studies.
Each line is one published result; not all experiments were run side by side. ± marks the error that the study gave.
PKG: cGMP-dependent protein kinase (PKG, Plasmodium falciparum, UniProt Q8I719)
G protein-coupled receptor 88: G protein-coupled receptor 88 (Homo sapiens, UniProt Q9GZN0)

The chains behind the UniProt entries cited, without tags or fusion partners. A line that says so, or that is headed by a name, gives the form on record, which may keep a tag or linker. Residues count along the entry.
UniProt Q8I719, whole entry: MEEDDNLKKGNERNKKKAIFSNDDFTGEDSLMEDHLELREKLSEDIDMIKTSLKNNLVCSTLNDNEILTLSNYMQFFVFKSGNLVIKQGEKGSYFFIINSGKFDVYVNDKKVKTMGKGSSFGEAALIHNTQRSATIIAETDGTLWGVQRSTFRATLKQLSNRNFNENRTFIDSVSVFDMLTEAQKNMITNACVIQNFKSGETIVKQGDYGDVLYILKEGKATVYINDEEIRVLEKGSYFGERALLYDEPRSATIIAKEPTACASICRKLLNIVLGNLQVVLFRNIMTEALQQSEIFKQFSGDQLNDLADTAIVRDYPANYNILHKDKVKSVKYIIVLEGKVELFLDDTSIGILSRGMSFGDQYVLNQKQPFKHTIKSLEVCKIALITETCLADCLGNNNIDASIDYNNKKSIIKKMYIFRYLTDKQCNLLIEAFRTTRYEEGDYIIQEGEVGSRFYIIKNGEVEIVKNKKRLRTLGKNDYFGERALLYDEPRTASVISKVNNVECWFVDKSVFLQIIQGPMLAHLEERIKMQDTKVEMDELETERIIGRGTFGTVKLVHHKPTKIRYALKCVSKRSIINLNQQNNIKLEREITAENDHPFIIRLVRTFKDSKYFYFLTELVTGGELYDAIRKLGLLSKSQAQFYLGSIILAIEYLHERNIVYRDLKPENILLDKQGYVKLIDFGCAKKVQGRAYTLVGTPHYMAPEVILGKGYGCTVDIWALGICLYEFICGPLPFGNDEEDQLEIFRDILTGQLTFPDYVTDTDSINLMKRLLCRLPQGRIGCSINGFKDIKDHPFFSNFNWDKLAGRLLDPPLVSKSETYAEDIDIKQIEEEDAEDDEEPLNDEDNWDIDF
UniProt Q9GZN0, whole entry: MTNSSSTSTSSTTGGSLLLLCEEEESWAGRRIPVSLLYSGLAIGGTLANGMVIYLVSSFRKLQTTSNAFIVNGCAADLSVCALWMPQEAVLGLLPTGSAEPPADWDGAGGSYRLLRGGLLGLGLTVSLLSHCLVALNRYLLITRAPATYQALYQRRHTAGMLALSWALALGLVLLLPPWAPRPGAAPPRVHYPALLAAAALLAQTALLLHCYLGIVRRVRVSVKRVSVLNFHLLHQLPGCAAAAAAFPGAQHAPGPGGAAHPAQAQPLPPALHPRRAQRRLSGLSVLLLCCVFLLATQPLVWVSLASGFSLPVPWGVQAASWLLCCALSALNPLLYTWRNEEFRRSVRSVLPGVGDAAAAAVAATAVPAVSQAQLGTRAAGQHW
UniProt P37136, 32-574 limits assumed: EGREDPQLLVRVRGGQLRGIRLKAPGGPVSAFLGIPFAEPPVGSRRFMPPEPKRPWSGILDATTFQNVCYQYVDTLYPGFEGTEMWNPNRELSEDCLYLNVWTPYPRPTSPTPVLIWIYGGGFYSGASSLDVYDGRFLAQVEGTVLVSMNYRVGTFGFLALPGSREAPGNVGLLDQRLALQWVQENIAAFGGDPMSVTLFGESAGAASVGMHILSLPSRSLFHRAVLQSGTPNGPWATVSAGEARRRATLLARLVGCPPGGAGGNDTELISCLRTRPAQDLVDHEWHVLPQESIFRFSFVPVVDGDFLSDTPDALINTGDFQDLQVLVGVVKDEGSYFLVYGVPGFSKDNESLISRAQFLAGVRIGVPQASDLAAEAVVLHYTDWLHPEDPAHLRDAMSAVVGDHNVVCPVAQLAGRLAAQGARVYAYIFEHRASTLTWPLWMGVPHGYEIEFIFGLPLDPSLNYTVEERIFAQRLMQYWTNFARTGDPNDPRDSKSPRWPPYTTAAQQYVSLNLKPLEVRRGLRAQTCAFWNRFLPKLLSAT
UniProt P08510, 1-655 with tags or gaps DEL6-46: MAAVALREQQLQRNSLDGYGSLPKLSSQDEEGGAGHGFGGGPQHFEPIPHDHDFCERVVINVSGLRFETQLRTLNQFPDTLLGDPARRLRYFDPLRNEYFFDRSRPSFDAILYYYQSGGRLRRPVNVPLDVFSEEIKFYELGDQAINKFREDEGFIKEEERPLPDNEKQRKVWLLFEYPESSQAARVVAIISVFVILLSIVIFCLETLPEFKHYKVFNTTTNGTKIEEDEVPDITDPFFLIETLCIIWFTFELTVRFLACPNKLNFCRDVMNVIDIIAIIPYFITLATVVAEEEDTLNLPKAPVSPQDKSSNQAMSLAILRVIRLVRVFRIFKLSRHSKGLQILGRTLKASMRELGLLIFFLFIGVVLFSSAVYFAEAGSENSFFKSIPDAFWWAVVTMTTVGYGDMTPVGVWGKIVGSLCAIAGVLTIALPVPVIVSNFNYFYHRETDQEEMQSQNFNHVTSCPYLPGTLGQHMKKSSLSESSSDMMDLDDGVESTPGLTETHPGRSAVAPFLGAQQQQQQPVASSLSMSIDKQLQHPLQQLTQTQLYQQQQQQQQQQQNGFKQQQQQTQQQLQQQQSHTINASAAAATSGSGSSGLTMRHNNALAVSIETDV
UniProt Q16881, 151-649 limits assumed: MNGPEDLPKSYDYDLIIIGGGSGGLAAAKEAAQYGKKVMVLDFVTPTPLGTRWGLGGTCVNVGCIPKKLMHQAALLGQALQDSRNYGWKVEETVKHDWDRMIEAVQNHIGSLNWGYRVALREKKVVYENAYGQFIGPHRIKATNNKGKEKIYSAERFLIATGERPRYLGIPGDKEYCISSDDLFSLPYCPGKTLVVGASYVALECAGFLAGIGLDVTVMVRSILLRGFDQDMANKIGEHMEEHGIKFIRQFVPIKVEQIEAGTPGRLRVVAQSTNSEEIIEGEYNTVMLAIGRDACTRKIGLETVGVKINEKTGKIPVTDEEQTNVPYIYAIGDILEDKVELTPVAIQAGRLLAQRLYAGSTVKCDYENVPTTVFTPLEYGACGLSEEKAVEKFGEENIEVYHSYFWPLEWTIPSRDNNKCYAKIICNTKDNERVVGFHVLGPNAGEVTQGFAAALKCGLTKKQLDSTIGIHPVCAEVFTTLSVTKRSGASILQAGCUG

SMILES	tested on	test	system	setting	how to read	endpoint	value
CCOP(=O)(OCC)ON1C(=O)c2cccc3cccc(c23)C1=O	Acetylcholinesterase (Ache, Rattus norvegicus, UniProt P37136)	enzyme activity, inhibitor, discontinuous Ellman	rat, postnatal day 12, rat heart homogenate	15 min, 37 °C		IC50	11 nM
CC[C@H](C)[C@H](NC(=O)[C@H](C)NC(=O)[C@H](CCC(=O)O)NC(=O)[C@H](CCC(=O)O)NC(=O)[C@H](CC(C)C)NC(=O)[C@H](CCCCN)NC(=O)[C@H](CCCCN)NC(=O)[C@H](CCSC)NC(=O)[C@H](CCC(=O)O)NC(=O)[C@H](Cc1ccc(O)cc1)NC(=O)[C@H](CCC(=O)O)NC(=O)[C@H](CC(C)C)NC(=O)[C@H](CC(=O)O)NC(=O)[C@H](CC(C)C)NC(=O)[C@H](Cc1ccccc1)NC(=O)[C@H](Cc1ccccc1)NC(=O)[C@@H](NC(=O)[C@H](CC(N)=O)NC(=O)[C@@H](NC(=O)[C@H](CCC(N)=O)NC(=O)[C@H](CC(=O)O)NC(=O)[C@H](CC(C)C)NC(=O)[C@@H](N)CO)[C@@H](C)CC)C(C)C)C(=O)N[C@@H](CCCCN)C(=O)N[C@@H](CCCCN)C(=O)N[C@@H](CC(C)C)C(=O)N[C@@H](CCC(=O)O)C(=O)N[C@@H](CCC(=O)O)C(=O)N[C@H](C(=O)N[C@@H](Cc1ccc(O)cc1)C(=O)N[C@H](C(=O)N[C@@H](CC(=O)O)C(=O)N[C@@H](CC(C)C)C(=O)N[C@@H](CCCCN)C(=O)N[C@@H](CCC(=O)O)C(=O)N[C@@H](CC(C)C)C(=O)O)[C@@H](C)CC)[C@@H](C)O	SARS-CoV-2 XBB.1.5 pseudovirus	pseudovirus infection, inhibitor, luciferase	Caco-2	24 h, dual mutations		IC50	121 nM
Oc1nc(/C=C/c2ccc(Cl)cc2Cl)cc(C(F)(F)F)n1	Replicase polyprotein 1ab, nsp16 with nsp10 (rep, Severe acute respiratory syndrome coronavirus 2, UniProt P0DTD1)	enzyme activity		0 h preincubation		IC50	> 100000 nM
CS(=O)(=O)Cc1onc(-c2cccc(Cl)c2)c1-c1ccnc(N[C@@H]2CCN(C(=O)c3nccs3)C2)n1	PKG	kinase activity, ATP-competitive inhibitor, IMAP kinetics				Ki	1.3 ± 0.4 nM
CC[C@H](C)[C@@H]1NC(=O)[C@H](CCCNC(=N)N)NC(=O)[C@@H](N)CSSC[C@@H]2NC(=O)[C@@H]3CSSC[C@@H](C(=O)N[C@H](C(=O)O)C(C)C)NC(=O)[C@H](CCCCN)NC(=O)[C@H](CC(N)=O)NC(=O)[C@H](Cc4ccccc4)NC(=O)[C@H](CCCNC(=N)N)NC(=O)[C@H](CC(N)=O)NC(=O)[C@H](CSSC[C@H](NC(=O)[C@H](CCCCN)NC(=O)[C@H](CCC(N)=O)NC(=O)[C@H](CC(N)=O)NC(=O)[C@@H]4C[C@@H](O)CN4C1=O)C(=O)N[C@@H](Cc1ccccc1)C(=O)N[C@@H](CCC(N)=O)C(=O)N[C@@H](Cc1c[nH]cn1)C(=O)N[C@@H](CC(C)C)C(=O)N[C@@H](CC(=O)O)C(=O)N[C@@H](CC(=O)O)C(=O)N3)NC(=O)[C@H](CCCCN)NC(=O)[C@H](CCCNC(=N)N)NC(=O)[C@H](CO)NC2=O	Sh (Drosophila melanogaster, UniProt P08510, del6-46)	potassium current, patch clamp, pooled data		zero voltage		Kd	300 ± 40 nM
CC(=O)Oc1ccc(CON2C(=O)CCC2=O)cc1	Thioredoxin reductase 1, cytoplasmic (TXNRD1, Homo sapiens, UniProt Q16881)	enzyme activity, inhibitor, DTNB reduction, two-step kinetics				Ki	4200 ± 300 nM
CCCN(C)Cc1onc(-c2cccc(Cl)c2)c1-c1ccnc(N[C@@H]2CCN(C(=O)c3ccn(C)n3)C2)n1	PKG	kinase activity, inhibitor, IMAP		together with: ATP 10 µM, FAM-PKAtide		IC50	425 ± 133 nM
CC[C@H](C)[C@H](N)CN(C(=O)C1CC1c1ccccn1)c1ccc(C2CCCCC2)cc1 (relative stereo)	G protein-coupled receptor 88	agonist				EC50	283 nM
Cc1ccc(S(=O)(=O)Nc2cccc(C(=O)NC3CCN(c4ncnc5[nH]cnc45)CC3)c2)cc1Cl	SARS-CoV-2		Wuhan-Hu-1	0.03048 µM	baseline: untreated infected cells	relative infection	81.9%
CCN(CC)Cc1onc(-c2cccc(Cl)c2)c1-c1ccnc(N[C@@H]2CCN(C(=O)c3ccn(C)n3)C2)n1	PKG	kinase activity, ATP-competitive inhibitor, IMAP kinetics				Ki	2.4 ± 1 nM
O=C(NC1CCN(c2ncnc3[nH]cnc23)CC1)c1cccc(S(=O)(=O)Nc2ccc(Cl)cc2)c1	SARS-CoV-2		Wuhan-Hu-1	0.2743 µM	baseline: untreated infected cells	relative infection	68.8%
CCCCCCc1ccc(N(C[C@@H](N)[C@@H](C)CC)C(=O)C2CC2c2ccccn2)cc1 (relative stereo)	G protein-coupled receptor 88	agonist				EC50	421 nM

A few entries again:
SMILES	tested on	test	system	setting	how to read	endpoint	value
CCCN(C)Cc1onc(-c2cccc(Cl)c2)c1-c1ccnc(N[C@@H]2CCN(C(=O)c3ccn(C)n3)C2)n1	PKG	kinase activity, inhibitor, IMAP		together with: ATP 10 µM, FAM-PKAtide		IC50	425 ± 133 nM
